Assay results collected from several papers.
A part holds a random share of what one study measured. Positions count from the first letter of the parent shown.

Set 1
Target: PABPC1L2, full length, GST fusion (mouse, UniProt A0ABA7IW68)
Technique: RNAcompete
Form: RNA
Sample: in vitro
Concentration: 20 nM
Setting: 7-mer, probes averaged, single round
Baseline: mean of 7-mers
Direction: higher = stronger binding
Target sequence (chain): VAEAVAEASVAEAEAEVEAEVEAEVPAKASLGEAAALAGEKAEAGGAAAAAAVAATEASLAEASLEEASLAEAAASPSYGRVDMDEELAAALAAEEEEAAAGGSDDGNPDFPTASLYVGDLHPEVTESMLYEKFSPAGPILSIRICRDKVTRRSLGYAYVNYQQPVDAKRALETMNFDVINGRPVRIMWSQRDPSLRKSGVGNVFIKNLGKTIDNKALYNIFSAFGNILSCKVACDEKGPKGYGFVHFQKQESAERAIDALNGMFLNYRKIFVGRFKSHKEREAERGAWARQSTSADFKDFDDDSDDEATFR
Strand	7-mer Z-score
CCACAUA	-0.179
UGCUAUA	-0.146
GUCUGCC	-0.358
CUAGCAC	-0.26
UCUGGGA	-0.00833
GACGAGU	-0.139
UUCGGGC	-0.278
UGAUGUA	-0.246

Set 2
Target: Fragile X messenger ribonucleoprotein 1, C-terminal low-complexity region (Fmr1, Mus musculus, UniProt P35922)
Technique: RNA Bind-n-Seq
Form: RNA
Sample: in vitro
Concentration: 200 nM
Setting: whole 134-nt RNA, ends assumed
Together with: 150 mM KCl
Baseline: input library
Direction: higher = stronger binding
Strand	log2 enrichment
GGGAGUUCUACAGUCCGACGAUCAGUCCUGUGCUACACAUCGUAUGUACCGAAUCGGGGAAAGGGGUUUGGGGUUUGGGGAAAGUAUUAUGUUACGCCGUUCGGAUCUGCACUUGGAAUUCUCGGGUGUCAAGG	0.939
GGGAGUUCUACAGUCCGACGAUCAGUCCUGUGCUACACAUCGUAUGUACCGAAUCGGGGCCCCCGGCCCCCGGGCCCCCGGAAAGUAUUAUGUUACGCCGUUCGGAUCUGCACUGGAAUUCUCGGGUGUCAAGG	-0.694
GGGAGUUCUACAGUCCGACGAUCGUCCUGUGCUACACAUCGUAUGUACCGAAUCAAAUUUAAACCCCCCCAAACCCCCAAAAAAGUAUUAUGUUACGCCGUUCGGAUCUGCACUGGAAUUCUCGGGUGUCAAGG	-0.217
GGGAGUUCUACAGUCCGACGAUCAAGUCCUGUGCUACACAUCGUAUGUACCGAAUCGGUUUUGGUUUUGGGUUUUGGGGAAAGUAUUAUGUUACGCCGUUCGGAUCUGCACUUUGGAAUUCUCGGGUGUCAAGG	-0.432
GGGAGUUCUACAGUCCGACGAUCCACAGUCAACACGCACCCACACAGACACAGAGGGAAGGGGUUGGGAUGGGGACAGGGUGCACAGCAGGGCGGGGUAGGACCCCAGCCCCUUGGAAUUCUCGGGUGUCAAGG	1.36
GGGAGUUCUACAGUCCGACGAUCGGUGUUGCUGGAAGAAGCCAAGGAUUUGCUCUCUGACUGGCUGGAUUCUACACUUGGCUGUGAUGUCACUGACAAUUCCAUCUUCUCCAAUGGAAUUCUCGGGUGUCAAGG	0.493
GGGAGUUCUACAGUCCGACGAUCACCAUGCAGGUGGGCAUCUUUGGGUAGUGGGGCAAGGGGGGGAUAGGGAGGGGGGUAACACUUUGGGAACAGGUGGUCCCAGGUCGUUUCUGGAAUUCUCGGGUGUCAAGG	0.755
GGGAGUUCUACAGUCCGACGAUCAGUCCUGUGCUACACAUCGUAUGUACCGAAUCGGAAAAAGGGAAAAAGGGAAAAAGGGAAAGUAUUAUGUUACGCCGUUCGGAUCUGCACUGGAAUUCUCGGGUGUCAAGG	-0.686

Set 3
Target: Sal-like protein 4, full length isoform B (SALL4, Homo sapiens, UniProt Q9UJQ4-2, residues 1-616)
Technique: universal PBM
Form: double-stranded DNA, one strand shown
Sample: in vitro
Concentration: not given
Setting: 8-mer, flanks averaged, mean of replicates
Direction: higher = stronger binding
Target sequence (chain): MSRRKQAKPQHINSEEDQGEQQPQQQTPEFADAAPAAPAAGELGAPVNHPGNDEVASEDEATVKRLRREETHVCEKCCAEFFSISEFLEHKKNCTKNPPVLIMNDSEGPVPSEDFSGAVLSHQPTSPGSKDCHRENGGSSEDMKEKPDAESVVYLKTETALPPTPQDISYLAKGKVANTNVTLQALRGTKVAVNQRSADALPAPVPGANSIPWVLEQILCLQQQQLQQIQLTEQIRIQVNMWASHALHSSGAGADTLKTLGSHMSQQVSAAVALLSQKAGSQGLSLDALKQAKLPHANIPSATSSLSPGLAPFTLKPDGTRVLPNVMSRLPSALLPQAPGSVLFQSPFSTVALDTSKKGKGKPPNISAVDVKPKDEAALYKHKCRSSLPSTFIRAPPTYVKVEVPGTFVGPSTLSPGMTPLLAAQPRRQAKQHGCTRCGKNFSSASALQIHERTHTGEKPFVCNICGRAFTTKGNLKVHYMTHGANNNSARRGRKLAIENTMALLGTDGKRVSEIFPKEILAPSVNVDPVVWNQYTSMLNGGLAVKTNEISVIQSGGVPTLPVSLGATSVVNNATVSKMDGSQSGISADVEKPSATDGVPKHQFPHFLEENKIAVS
Strand	E-score
GCGTCTTA	0.0281
CATCTGCA	0.0643
ACGATATG	0.218
CCCATCCC	-0.181
CCGAGTTA	0.004
CGTAACTC	-0.0477
TAAAGTTA	0.202
AGATAAGG	0.00112

Mixed results
Starting sequence: viral docking peptide; KKAKRRLFTISDS
Change	target	test	system	conditions	scale	measurement	result
KKAKRRLFTISAS [D12A]	CCNE2, cyclin fold, Cln2 fusion (human)	yeast growth competition, sequencing	yeast	strong parent motif	baseline: not given, higher = stronger binding	normalised enrichment score	0.62

Repeated from above (set 3):
Strand	E-score
CATCTGCA	0.0643
CCCATCCC	-0.181
AGATAAGG	0.00112
